Experimental data pooled from the literature.
Every numbered part comes from another study and shows a few of its results, in no order.

Block 1 — technique: protein binding microarray; form: double-stranded DNA, one strand shown; sample: in vitro; tested at: not given; relative to: not given; reading: higher = stronger binding; measurement: E-score
Target: Histone acetyltransferase KAT6A, both winged helices, GST fusion (KAT6A, Homo sapiens, UniProt Q92794, residues 1-181)
Notes: 8-mer, flanks averaged, mean of 2 arrays, mostly near background
Construct (chain): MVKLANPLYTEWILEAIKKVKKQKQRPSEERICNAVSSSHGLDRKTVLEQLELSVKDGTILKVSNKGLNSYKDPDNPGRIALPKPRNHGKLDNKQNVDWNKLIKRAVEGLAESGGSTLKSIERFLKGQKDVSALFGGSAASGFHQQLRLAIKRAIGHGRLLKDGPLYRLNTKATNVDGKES
AGTGGCAC: -0.164
GGGTTGAA: -0.0641
ATTACGTC: -0.122
AACTGAGA: -0.152
CGATTGAG: -0.0283
CCCTCCCG: 0.0664
GCTCTTGA: -0.133
AATTCTAA: -0.0579
ATAAGATC: -0.0681
AGGCTACA: -0.265
GGTAGAAC: -0.107
ACCGTCCT: 0.0782
TCAGAGGA: -0.0694
AGCGCTGA: 0.316
TAATCGTA: -0.0396
CGTGCTAC: 0.0103
ATATTTGA: -0.0539
AGGCGGGC: 0.188
TCATGGGA: -0.0972
GCCCAGCC: -0.096

Block 2 — technique: aptamer microarray, sandwich; form: DNA with 2'F-ANA; sample: in vitro; tested at: 200 nM; with: Cy3 exosite-II aptamer, 400 nM; reading: higher = stronger binding; measurement: mean fluorescence intensity; sequence: GGTTGGTGTGGTTGG
Target: Prothrombin, mature alpha-thrombin (F2, Homo sapiens, UniProt P00734)
Notes: whole 15-mer aptamer, many near background
2'F-ANA at 2 3 6 7 10 12 14: 319 a.u.
2'F-ANA at 1 3 4 6 7 8 10 13: 60.9 a.u.
2'F-ANA at 1 4 7 8 11 12 13 14 15: 63.7 a.u.
2'F-ANA at 1 2 3 6 8 11: 245 a.u.
2'F-ANA at 2 5 9 10: 45.8 a.u.
2'F-ANA at 1 2 3 8 9 10 13 14 15: 57.8 a.u.
2'F-ANA at 2 3 5 10: 70.8 a.u.
2'F-ANA at 1 3 4 9 10 11 12 15: 80.2 a.u.
2'F-ANA at 2 3 4 5 6 9 15: 80.8 a.u.
2'F-ANA at 1 2 3 4 5 8 9 10 13 14 15: 69.2 a.u.
2'F-ANA at 1 2 4 5 7 8 9 10 11 12 13 14 15: 53.8 a.u.
2'F-ANA at 3 10 13: 528 a.u.
2'F-ANA at 4 6 8 9 12 13: 360 a.u.
2'F-ANA at 4 6 7 8 9 11 12 15: 350 a.u.
2'F-ANA at 5 8 10 11 13: 42.6 a.u.
2'F-ANA at 1 2 4 6 8 10 11 12 14 15: 145 a.u.
2'F-ANA at 1 3 4 5 10 12: 61.2 a.u.
2'F-ANA at 1 2 5 6 9 10 14: 116 a.u.
2'F-ANA at 1 2 4 7 9 10 11: 48.2 a.u.
2'F-ANA at 2 7 8 9 12 14 15: 224 a.u.
2'F-ANA at 1 2 5 6 7 8 10 12 13 15: 62.9 a.u.

Block 3 — technique: protein-binding microarray; form: double-stranded DNA, one strand shown; sample: in vitro; tested at: 0.8 µM; notes: whole 60-bp probe, no competitor; reading: higher = stronger binding; measurement: fluorescence intensity
Target: Centromere-binding protein 1, full length, N-terminal tag (CBF1, Saccharomyces cerevisiae, UniProt P17106, residues 1-351)
UniProt P17106, sequence (whole entry, looked up): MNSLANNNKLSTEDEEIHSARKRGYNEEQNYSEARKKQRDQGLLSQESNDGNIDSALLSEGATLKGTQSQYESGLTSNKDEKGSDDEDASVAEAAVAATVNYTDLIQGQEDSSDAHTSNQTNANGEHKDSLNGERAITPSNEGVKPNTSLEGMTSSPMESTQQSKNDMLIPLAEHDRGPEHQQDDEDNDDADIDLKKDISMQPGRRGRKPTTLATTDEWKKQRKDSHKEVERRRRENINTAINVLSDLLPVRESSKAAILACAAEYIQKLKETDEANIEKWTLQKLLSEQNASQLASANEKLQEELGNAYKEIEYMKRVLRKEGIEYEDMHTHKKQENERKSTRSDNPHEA
GAATTCGATTATTTTGATGTGACTTGAAGGCTTTAGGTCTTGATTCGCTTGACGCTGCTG: 561 a.u.
CTAGCTTATATTTGTCACGTATACCTACTATTTTTCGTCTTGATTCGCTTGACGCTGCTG: 777 a.u.
GAAGTTAGCCTTAAGAACGTGTCCAAACCTCTTTAGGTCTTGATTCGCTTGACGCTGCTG: 542 a.u.
GAAAGGTAGCCGGAAAACGCACGAATCTAAGACTAGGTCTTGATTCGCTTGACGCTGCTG: 478 a.u.
GAAAAGGAACAATCAGCTGAGATGTGTTGAGAATAGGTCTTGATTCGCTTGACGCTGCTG: 633 a.u.
GAAATTAATTAGTCTCACATGGCTGACATAACGTAGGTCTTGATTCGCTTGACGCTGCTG: 946 a.u.
GAACCATATGAAAAGAACGTGGATTTTGATGTATAGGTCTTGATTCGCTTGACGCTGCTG: 550 a.u.
CTACGTATGTGTTCGTACGTGCGGTCCGCAAGGTTCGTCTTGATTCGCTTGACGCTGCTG: 491 a.u.
CTAACTTTCGCCCACGTGCGTACATCATTTACTTTCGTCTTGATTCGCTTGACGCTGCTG: 3780 a.u.
TGTACGAAGCTATGTGGTGCCTTTATAGTAGTTAGGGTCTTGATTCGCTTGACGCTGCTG: 489 a.u.
CCTAACTACTATAACCACCAGAAATAGCTTCGTACAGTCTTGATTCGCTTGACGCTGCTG: 524 a.u.
CTATAACAAAGAAGGTGACTTGCGCTTAATTAGTTCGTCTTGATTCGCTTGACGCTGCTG: 550 a.u.
GAATTAGCTCATTCTGACGTCAACATCGAAACGTAGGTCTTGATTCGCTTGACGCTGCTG: 489 a.u.
GAAAGGATTGTTTGTCAGGTGTCGCGGCCACAATAGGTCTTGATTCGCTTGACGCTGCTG: 1070 a.u.
CTATATATTATCGCGCAGGTGAGAGAGTCCTGGTTCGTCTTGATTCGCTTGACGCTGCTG: 589 a.u.
CTATAAAATGGTACCCATCTGATGCAGGAATTCTTCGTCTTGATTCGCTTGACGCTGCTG: 552 a.u.
CTATCCCACATGATTCACCTGATTACGACTCACTTCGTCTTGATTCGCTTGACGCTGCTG: 991 a.u.
CTAATTCCACTCCATCACCCATCTCTCACCATCTTCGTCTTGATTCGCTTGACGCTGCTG: 529 a.u.
GAACGGAGACAATAGCACGAGTGGTAACAGGTCTAGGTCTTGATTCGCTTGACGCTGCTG: 551 a.u.
CTACACAGGCGGGGTAACATCAAAAGGATTTATTTCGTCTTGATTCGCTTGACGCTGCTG: 531 a.u.
GAATTCACCAATGATCTCCTGAAGCCCCTCAATTAGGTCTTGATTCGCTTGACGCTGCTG: 515 a.u.
GAAGAAAAGAGCTACGAGCACGTGCAAATATATTAGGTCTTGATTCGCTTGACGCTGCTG: 16600 a.u.
GAAACTTGTACCCTTCATCACCTTTGGAATCACTAGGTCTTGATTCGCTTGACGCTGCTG: 531 a.u.
GAAAAAGGCATTCACGTTGTAGAAGAGTCAAAGTAGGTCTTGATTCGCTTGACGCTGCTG: 697 a.u.
CTATTCAATCACCCCCTCGTGAGAATTTAATGTTTCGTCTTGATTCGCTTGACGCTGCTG: 655 a.u.

Block 4 — technique: RNA Bind-n-Seq; form: RNA; sample: in vitro; tested at: 200 nM; notes: whole 134-nt RNA, ends assumed; with: 150 mM LiCl; relative to: input library; reading: higher = stronger binding; measurement: log2 enrichment; each molecule: 7-deaza-guanosine replaces G
Target: Fragile X messenger ribonucleoprotein 1, C-terminal low-complexity region (Fmr1, Mus musculus, UniProt P35922)
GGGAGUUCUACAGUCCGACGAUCUUGUGAUUAAGAUUUGUUCUUUUUCUCCCCUCUCUAUAGGAAGAUGAUCCCUAUGAUCUUGAAGAUGUUUCUGCACAGAAAUGAGGGAAAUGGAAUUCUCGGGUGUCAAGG: -0.0885
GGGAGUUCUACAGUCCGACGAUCGUCCUGUGCUACACAUCGUAUGUACCGAAUCGGGGUUUGGGGAAAGGGGAAAAAGGGGAAAGUAUUAUGUUACGCCGUUCGGAUCUGCACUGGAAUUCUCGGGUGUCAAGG: 0.604
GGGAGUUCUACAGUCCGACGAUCACCAUGCAGGUGGGCAUCUUCGGGAAGUGGGGCAAGGGGGGGAUAGGGAGGGGGGUAACACUUUGGGAACAGGUGGUCCCAGGUCGUUUCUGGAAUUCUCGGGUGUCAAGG: 1.38
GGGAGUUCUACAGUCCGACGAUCUUGCAGCAACUGCUACCAGCCUCCCAGUCCACACAGCUGCCAUGCUCAAGUUCCCCUCAGGAGACCACCCAGUCUCGCCCUAUGCCGCCGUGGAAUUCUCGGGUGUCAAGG: 1.28
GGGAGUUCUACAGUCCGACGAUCUGGCCCUGGUGGCAUGCGGGGAGGAAGAGGUGGCCUCAUGGAUCGUGGUGGUCCCGGUGGAAUGUUCAGAGGUGGCCGUGGUGGAUACAGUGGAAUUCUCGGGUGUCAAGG: -0.269
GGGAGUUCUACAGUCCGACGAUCCCUCAAGUCCUGUGCUACACAUCGUAUGUACCGAAUCGGGCGGGGCGGGCGGGAAAGUAUUAUGUUACGCCGUUCGGAUCUGCACUUCCAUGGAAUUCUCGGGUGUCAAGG: -0.966
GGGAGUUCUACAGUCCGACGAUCCCUGUGCUACACAUCGUAUGUACCGAAUCGGGGAAAAAAAGGGGUUUUUGGGGAAAGGGGAAAGUAUUAUGUUACGCCGUUCGGAUCUGCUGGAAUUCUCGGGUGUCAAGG: -0.541
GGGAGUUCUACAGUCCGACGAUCCAAGUCCUGUGCUACACAUCGUAUGUACCGAAUCGGGGCCGGGGCCGGGGCCGGGGAAAGUAUUAUGUUACGCCGUUCGGAUCUGCACUUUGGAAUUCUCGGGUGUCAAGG: -0.55
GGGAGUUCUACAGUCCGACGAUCCCUGUGCUACACAUCGUAUGUACCGAAUCGGGGAAAAAAGGAAAAAAGGGAAAAAAGGGGAAAGUAUUAUGUUACGCCGUUCGGAUCUGCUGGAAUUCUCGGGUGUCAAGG: 0.199
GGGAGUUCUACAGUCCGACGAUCCAAGUCCUGUGCUACACAUCGUAUGUACCGAAUCGGUUUGGGGUUUGGGUUUGGGGAAAGUAUUAUGUUACGCCGUUCGGAUCUGCACUUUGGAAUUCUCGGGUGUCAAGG: -1.53
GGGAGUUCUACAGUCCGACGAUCUGGCCCUGGUGGCAUGCGGGGAGGACGAGGUGGCCUCAUGGAUCGUGGUGGUCCCGGUGGAAUGUUCAGAGGUGGCCGUGGUGGAGACAGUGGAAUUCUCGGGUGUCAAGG: -0.461

A few entries again (block 2):
2'F-ANA at 1 3 4 9 10 11 12 15: 80.2 a.u.
2'F-ANA at 2 3 4 5 6 9 15: 80.8 a.u.
2'F-ANA at 1 2 3 4 5 8 9 10 13 14 15: 69.2 a.u.
2'F-ANA at 1 2 4 5 7 8 9 10 11 12 13 14 15: 53.8 a.u.
2'F-ANA at 3 10 13: 528 a.u.
2'F-ANA at 4 6 8 9 12 13: 360 a.u.
2'F-ANA at 4 6 7 8 9 11 12 15: 350 a.u.
2'F-ANA at 5 8 10 11 13: 42.6 a.u.
2'F-ANA at 1 2 4 6 8 10 11 12 14 15: 145 a.u.
